Results collected from several papers.
Protocols differ between the studies behind these lines. Several values in a cell are separate wells, animals, samples, runs or records.
Target: Serine/threonine-protein kinase N2 (PKN2, Homo sapiens, UniProt Q16513)

| SMILES | test | test system | setting | how to read | measurement | result |
| --- | --- | --- | --- | --- | --- | --- |
| COc1cc(Nc2nccc(-c3cnn4nc(OC)ccc34)n2)cc(C(F)(F)F)c1 | binding, competition with immobilised ligand |  | 1 µM |  | remaining binding | 100% |
| Cc1cccc(O[C@H]2CCC[C@@H](C(C)CNCc3ccncc3)C2)c1 (relative stereo) | enzyme activity, inhibitor |  | 10 µM |  | inhibition | 0% |
| Cc1ccc(C)c(-c2ccc3nc(NC(=O)C4CCCCC4)nn3c2)c1 | enzyme activity, Dundee kinase panel |  | 10 µM |  | remaining activity | 79% |
| CN1CC[C@@H](COc2cnc(C#N)cc2-c2ccn3nc(NC(=O)C4CC4)cc3c2)C1 | enzyme activity, inhibitor |  | 1 µM |  | inhibition | -10% |
| CNC(=O)C[C@H](Cc1ccc(C#N)cc1)NC(=O)c1cc(-c2ccc(CN[C@H](C)c3ccc(C)cc3)o2)ccc1Cl | enzyme activity, inhibitor |  | 1 µM |  | activity vs control | 79% |
| C=CC(=O)Nc1cccc(-c2cnc3[nH]cc(C(=O)NC(C)(C)C)c3n2)c1 | kinase activity |  | 0.1 µM |  | inhibition | 18% and 17% |
| COc1c(Cl)cccc1Nc1c(-c2ccncc2C#C[C@@]2(C)CCCN2C(=O)/C=C/CN(C)C)[nH]c2c1C(=O)NCC2 | binding, competition with immobilised ligand |  | 3 µM |  | remaining binding | 100% |
| c1ccc2c(Nc3cc(C4CCC4)[nH]n3)nc(Nc3ccc4nc[nH]c4c3)nc2c1 | enzyme activity, inhibitor |  | 0.25 µM |  | remaining activity | 18% |
| C=CC(=O)N1CCc2ccc(-n3c(=O)ccc4cnc5ccc(-c6cnn(C)c6)cc5c43)cc21 | KINOMEscan |  | 1 µM | baseline: DMSO control | remaining binding | 94% |
| O=C=[N][Ru-4]123([n]4c5ccc(O)cc5c5c6c(c7cc(F)c[n+]1c7c54)C(=O)NC6=O)[S+]1CC[S+]2CC[S+]3CC1 (stereo not shown) | enzyme activity |  | 100 nM, human enzyme, added: 10 µM ATP | baseline: untreated | remaining activity | 76% |
| NC(=O)[C@@H](O)C[C@H]1CCc2sc3ncnc(O[C@H]4CC[C@H](N5CCOCC5)CC4)c3c21 | enzyme activity, inhibitor |  | 10 µM |  | inhibition | 3% |
| N[C@H]1CC[C@H](Nc2nccc(-c3cccnc3Oc3ccc(NC(=O)NC4CC4)c4ccccc34)n2)CC1 | kinobead competition pulldown | HEK293/HCT116 lysate mixture | 10 µM, 1 h, 4 °C | lower = stronger competition | log2 LFQ intensity | 18.6 and 20.4 and 19.9 and 18.9 |
| Nc1nc(Nc2ccccc2)sc1C(=O)c1ccccc1 | enzyme activity, inhibitor |  | 10 µM |  | remaining activity | 33% |
| COc1c(OCCCN2CCOCC2)ccc2c1N=C(NC(=O)c1cnc(N)nc1)N1CCN=C21 | kinase activity, inhibitor |  | 1 µM | baseline: untreated control | remaining activity | 105% |
| Cc1ccc(-c2c(/C=C(\C#N)C(=O)NC(C)C)n(CCCO)c3ncnc(N)c23)cc1 | cell-free assay, competition with immobilised ligand |  | 1 µM |  | remaining binding | 98% |
| CCn1cc(C(=O)O)c(=O)c2c(N)c(F)c(NC3CCCCC3)cc21 | kinase activity |  | 0.1 µM, added: ATP at Km |  | inhibition | 6.1% |
| Cc1cnc2nc1Nc1cccc(c1)COC/C=C/COCc1cc(ccc1OCCN1CCOCC1)N2 | binding |  | 0.1 µM |  | remaining binding | 92% |
| CNC(=O)C1CCN(c2cc(C)c(F)cc2NC(=O)c2ccc(-c3cc(O)ccc3C)c(C)c2)CC1 | binding, competition with immobilised ligand |  | 1 µM |  | remaining binding | 100% |
| Cc1cccc(-c2ccc3nc(NC(=O)C4CCOCC4)nn3c2)c1 | enzyme activity, Dundee kinase panel |  | 10 µM |  | remaining activity | 103% |

A few entries again:
| SMILES | test | test system | setting | how to read | measurement | result |
| --- | --- | --- | --- | --- | --- | --- |
| CNC(=O)C[C@H](Cc1ccc(C#N)cc1)NC(=O)c1cc(-c2ccc(CN[C@H](C)c3ccc(C)cc3)o2)ccc1Cl | enzyme activity, inhibitor |  | 1 µM |  | activity vs control | 79% |
| COc1c(OCCCN2CCOCC2)ccc2c1N=C(NC(=O)c1cnc(N)nc1)N1CCN=C21 | kinase activity, inhibitor |  | 1 µM | baseline: untreated control | remaining activity | 105% |
| CN1CC[C@@H](COc2cnc(C#N)cc2-c2ccn3nc(NC(=O)C4CC4)cc3c2)C1 | enzyme activity, inhibitor |  | 1 µM |  | inhibition | -10% |
